Measurements of several laboratories.
Numbered parts are unrelated; each lists some results of a single study.

Study 1
Target: Sal-like protein 4, full length isoform A (SALL4, Homo sapiens, UniProt Q9UJQ4, residues 1-1053)
Sequence of UniProt Q9UJQ4 (whole entry, looked up): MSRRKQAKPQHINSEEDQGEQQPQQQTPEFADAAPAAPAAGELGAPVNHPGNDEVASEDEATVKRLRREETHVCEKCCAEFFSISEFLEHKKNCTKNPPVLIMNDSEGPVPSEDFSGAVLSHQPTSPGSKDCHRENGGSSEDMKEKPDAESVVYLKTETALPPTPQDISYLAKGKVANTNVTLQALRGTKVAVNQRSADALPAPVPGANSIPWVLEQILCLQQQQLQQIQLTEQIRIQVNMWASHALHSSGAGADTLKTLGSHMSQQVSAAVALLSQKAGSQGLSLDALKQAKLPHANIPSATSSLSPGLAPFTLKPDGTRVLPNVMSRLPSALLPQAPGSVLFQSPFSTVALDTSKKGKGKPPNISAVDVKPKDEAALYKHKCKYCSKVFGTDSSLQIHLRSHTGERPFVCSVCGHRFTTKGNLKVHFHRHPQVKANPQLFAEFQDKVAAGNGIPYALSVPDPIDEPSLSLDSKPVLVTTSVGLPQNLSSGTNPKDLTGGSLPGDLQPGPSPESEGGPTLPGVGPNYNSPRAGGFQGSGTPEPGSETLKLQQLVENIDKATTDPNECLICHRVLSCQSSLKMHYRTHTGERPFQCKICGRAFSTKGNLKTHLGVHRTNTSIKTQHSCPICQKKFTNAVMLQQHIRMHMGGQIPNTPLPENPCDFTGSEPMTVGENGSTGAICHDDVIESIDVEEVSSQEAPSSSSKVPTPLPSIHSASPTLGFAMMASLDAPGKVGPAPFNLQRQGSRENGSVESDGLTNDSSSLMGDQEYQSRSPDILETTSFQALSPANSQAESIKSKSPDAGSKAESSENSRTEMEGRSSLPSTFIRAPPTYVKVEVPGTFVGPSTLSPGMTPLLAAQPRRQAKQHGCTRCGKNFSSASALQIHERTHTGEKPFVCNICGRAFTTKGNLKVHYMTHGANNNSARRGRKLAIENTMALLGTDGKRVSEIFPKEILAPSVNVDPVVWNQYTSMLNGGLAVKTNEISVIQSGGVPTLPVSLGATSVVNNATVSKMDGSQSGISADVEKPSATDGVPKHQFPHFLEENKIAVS
Technique: universal PBM
Form: double-stranded DNA, one strand shown
Sample: in vitro
Tested at: 600 nM
Setting: 8-mer, flanks averaged, mean of replicates
Reading: higher = stronger binding
Quantity: E-score
GCCGCATA: 0.0384
AACCGAAA: 0.147
CGACCGTA: -0.205
GGTCAGTA: -0.081
ACAAAATC: 0.129
AAAGCGCG: -0.175
CGCACTCA: -0.114
AACGCCCA: -0.0273
CCCGCTCC: -0.319
CGCATTTA: 0.186
GCTTTTGA: -0.0672
GGCATTTA: -0.0646
ATGAATGG: 0.143
CACTACGG: -0.313
AAATCCAC: 0.0659
ACCTAGCA: 0.0315
TATTCTAA: 0.328
AAGATGAT: 0.232
GCAGAAGC: -0.135
AGCCAACA: -0.0615
AGCTAGCC: -0.242
GATTTAAA: 0.171
AGCGCGAG: -0.219
CAGTGAAG: 0.0161
CATAAGCG: 0.0643

Study 2
Target: Histone acetyltransferase KAT6A, both winged helices, GST fusion (KAT6A, Homo sapiens, UniProt Q92794, residues 1-181)
Technique: protein binding microarray
Form: double-stranded DNA, one strand shown
Sample: in vitro
Tested at: not given
Setting: 8-mer, flanks averaged, mean of 2 arrays, mostly near background
Baseline: not given
Reading: higher = stronger binding
Quantity: E-score
Residues (chain): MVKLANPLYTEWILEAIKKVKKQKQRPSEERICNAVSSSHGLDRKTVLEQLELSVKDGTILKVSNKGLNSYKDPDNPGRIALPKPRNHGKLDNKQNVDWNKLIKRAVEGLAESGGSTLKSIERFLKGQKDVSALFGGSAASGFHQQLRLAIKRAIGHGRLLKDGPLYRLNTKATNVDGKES
TCAACCAA: -0.103
CTGCCACA: -0.102
ACACTGTA: -0.108
CGGATCGA: 0.0703
TAAAGACA: -0.0753
ATCGAATA: 0.0198
GGGCTAAA: 0.023
CATCCTCG: 0.055
ACACCCCA: -0.23
AGGCGCCA: 0.121
ACTTAACT: -0.104
ACATGCAG: -0.0566
ATCTGTAC: -0.0238
AAGACGTA: -0.102
GCATATCC: -0.0202
GGTTTATA: 0.0988
ACAAACGC: 0.247
CAAAGACG: 0.0489
GATCGGAA: 0.124

Study 3
Target: Interferon regulatory factor 5, full length, phosphomimetic (IRF5, Homo sapiens, UniProt Q13568-2, residues 1-514, K96S/S451D/S453D/S456D/S462D)
Technique: protein-binding microarray
Form: double-stranded DNA, one strand shown
Sample: in vitro
Tested at: 250 nM
Setting: 60-bp whole probe
With: salmon DNA 0.4 mg/ml
Baseline: random background probes
Reading: higher = stronger binding
Quantity: log fluorescence
Shared flanks, not repeated: GCCTAGCAC … GTCTTGATTCGCTTGACGCTGCTG
TCAATTTTTAGGATGGGACTGTGCTAG: 0.0543 z-score
TTAGGACTGGGGACTGGGGTAGTGCTA: -0.133 z-score
GAGGGACTGCTTCTCCTGACGTGCTAG: -0.805 z-score
GACGAACTGGGGTTTCGAGAGGTGCTA: 0.958 z-score
TTATGTTTCGGTTTCGGTTAGTGCTAG: 11.9 z-score
AACGATGCAAGTGCCCTTCGGTGCTAG: 0.0481 z-score
TTAGGATTCGGGTATCGGTTAGTGCTA: 4.33 z-score
GCCGATCTCAGTCTCGAGACGTGCTAG: 0.0766 z-score
GACGGTTTCCTTATTCTGACGTGCTAG: 0.737 z-score
TACGGTTTCGACACTGGGGACGTGCTA: 4.65 z-score
GACGGACTGGGTCTCGGGGCGTGCTAG: -0.728 z-score
TTACGTATCCTTATCCTTTAGTGCTAG: 1.1 z-score
GACGGTCTCGGACTGCGGACGTGCTAG: -0.473 z-score
TTAGGACTGCTTACCCTTTAGTGCTAG: -0.153 z-score
GACGATTTAAGTTTCGAGACGTGCTAG: 4.86 z-score
TGCTCCTTATGGCTAAAGGGGTGCTAG: -0.413 z-score

Study 4
Target: RNA binding protein fox-1 homolog 2, RRM domain, GST-SBP tag (RBFOX2, Homo sapiens, UniProt O43251-10, residues 100-194)
Technique: RNA Bind-n-Seq
Form: RNA
Sample: in vitro
Tested at: 365 nM
Setting: natural RNA segment, single round, ends assumed
Baseline: no-protein control
Reading: higher = stronger binding
Quantity: RBNS enrichment (R)
Shared flanks, not repeated: GGGAGUUCUACAGUCCGACGAUC … UGGAAUUCUCGGGUGCCAA
Target sequence (chain): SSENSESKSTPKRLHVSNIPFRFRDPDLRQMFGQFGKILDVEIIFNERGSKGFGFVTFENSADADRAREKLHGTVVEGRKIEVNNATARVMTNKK
UUGUUUAGCUAGUGAAUGUGACAAUAUAUUUUAUGUAUAUAAUGAGUCUAAUGUAAUUUUGAUCAACUUGGUAAUGAUGUUAUUAAAUAGCAAAACAAGUGCAGUGUAUU: 3.5
AUGAGGAUUGCCCAAUAAGGGGCAGGUACACAUACCUGGCAAAGUGAUGAUGAUGUGAAUUGUUUCCAGUGAGGGGAUUGAGUCAAAACUUGGAUCUCAGGUACCUCAAU: 1.22
GUGCAGAACGUCUGGAUGGACACCCAUCAUGCAUCAGUGCAAUAGAGUCUAGUAAGUGUCUCUAGCCAGGCUUGUCAGUUGUGCAGGAAACAAGGCCUGGUCCUAGCAAA: 1.42
CAUGUUCUUAAAACUCCUGGUGACUUUGUUCUUUUGCCAACGUAGAAAGCACAGUGGACGGGUUGUGUUUGUCCCAGCCCUCUCUGUAGGCUGAGCAGUGCAGCGGCGCC: 0.505
GGAAAAGGUUUUAUUUUGUAAUUAUUGUGAUUUCCCGUGGCCCCAGCCUGGCCCAGCUCCCCCGGGAGGGGCCCGCUUGCCUCGGCUCCUGCUGCACCAACCCAGCCGCU: 0.748
CCCCAGAGGAUCUGGCUCUAGGUUGGGAUCAAUCCUGAAUUUCGUUAUGUGUUAAUUUACUUUUAUUAAAAAAGUAUAGUAUAUAUAAUACAAAACAAUAACCCUUCUGG: 0.621
CUGGAGAUGGCAAAAUCCUCUAAAAUGUCGAGGUCUCUUGAAGACUUGAGAAGCUGUCACAAGGUCACUACAAGCCCAACCUGCCCCUUCACUUUGCCUUCCUGAGUUGG: 0.23
CCAAACUCAAAGAAUGGGGUGGUGGGGGGCACCCUGUGAGGUGGCCCCUGAGAGGUGGGGGCCUCUCCAGGGCACAUCUGGAGUUCUUCUCCAGCUUACCCUAGGGUGAC: 0.355
CACUGCUUUCUCAAGUAGUUUUGAGUGCUGGGUCCUUAAAACCCAACUAUGCAUUUUUGUCUGAAAGUAGGCACUGAAGCAUUGAAGUAAGGUAAGGAGACAUCCUCUUC: 0.231
AGAGACGGAAAUGGGCAGUUCAGGAGCUCCGUUAGCCUUGGCCUGGGCAGUGACACCUCUAGUGCCCCCAGCAGCCAUGUAGGCAUCCACUCCACCUGCAAAAGACGAUG: 0.362
UCUUCUCUUAAUCGGAAUCGUGAUGGUGUUGGAUUAUUUCAAUGGUGGGGUUAAUAUAGCAUGUUAUCCUGUCUAUCUUUUAAAGAUUUCUGUAUAAGACUGUUGAGCAG: 3.03
UUUUUACUUACUACUGAAGGAUCUCAGAUGUAAAAUUAUGUAUUUGGUUUGAGAUGGCCACUUAUUGUCCUUAAAAAUCCAUACUGAUAUAUGCAGUCAUUUUGAAUUGG: 0.382

Study 5
Target: RING finger protein unkempt homolog, zinc fingers 1-6, GST-SBP tag (UNK, Homo sapiens, UniProt Q9C0B0, residues 30-357)
Technique: RNA Bind-n-Seq
Form: RNA
Sample: in vitro
Tested at: not given
Setting: RNA with constant flanks, human and mouse sites, ends assumed
Baseline: input RNA pool
Reading: higher = stronger binding
Quantity: bound/input enrichment
Shared flanks, not repeated: GGGAGUUCUACAGUCCGACGAUC … CAACAGAGGAUUGAGCAUCA
Construct (chain): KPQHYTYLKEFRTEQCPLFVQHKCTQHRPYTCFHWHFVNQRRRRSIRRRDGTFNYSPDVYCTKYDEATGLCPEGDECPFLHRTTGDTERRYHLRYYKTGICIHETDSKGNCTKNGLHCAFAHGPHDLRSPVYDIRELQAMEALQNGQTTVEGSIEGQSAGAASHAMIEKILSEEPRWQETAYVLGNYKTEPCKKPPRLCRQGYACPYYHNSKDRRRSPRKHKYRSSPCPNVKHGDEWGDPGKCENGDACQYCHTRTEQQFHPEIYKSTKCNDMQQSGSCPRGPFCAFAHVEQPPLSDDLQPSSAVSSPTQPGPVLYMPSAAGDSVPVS
CAUGUGACCAAAUCCAUUUCAUUAUUGAAUGGCUUGAUGGAUUUCCUUUACUCUGAUUCAUACCAAAGCUGUCCUUCUCAACCAAAGCAAGAAAGGAUCCUGCAUGAGUCAAUCCCAGAA: 0.156 ratio
UCCGCACUGGAGAACAUGCUUUUUUUCAACAGUCCUUCUGUGGGCCCCAAUGCUCCCAAGAUAGAGGACUUGAAAUGGCAUUCUGCAUUCUUCAGGAAACAAAUGGGCACUUCCUUGGUU: 0.159 ratio
CGUGAUGAGGAAGUAAGCUCUGCUGAUAUAAGUAGUUCAUCUGAGGUAAUAUCACAGCAUCUAGUAUCUUACAGAAAUAUUGAAGAGCUUCAACAACAAAAUCAACGUCUCUUAGUGGCC: 0.468 ratio
GUAUUCUCCAAAGCAGUGUUCACACGGGAGCCAGCCUGUGGCCCCCAGCCUCCUGGAAAACAGGUUGGCGCUGGAGGAGCCGGGUCUUGGCAUCCUGGAGGUGGCCCCACUGGUCCUGGU: 0.111 ratio
AAGAGUUUAUGCUGAGGGAAAAUCUGAAAAUGUGACAAUGUAGGAAAUUUUUUCUUCAACCUUUUUACUUGUUAAACUUAAUACUUUGUUUGACUUUUAGUCAGUCUUUCAGCUUUGCUC: 0.327 ratio
AGGUGGUAUGGAAGCCUGCAUGCGUGUUCAACUCUGUUCCUCCUCCCUCCUCCUCGGCCUCCCUCCUCCCCUCCUUCGCUCGCUCAACCUCUUUUGUUCAGUACGUGUAACUUGAAGCUA: 0.682 ratio
GCUAUGCAGCUAUAUUCUGUAGAUAGGAAAGUGUCUCAGCCCAUUGAAGGACAUGCAGCUAGCUUUGCACAGUUUAAGAUGGAAGGAAAUGCAGAAGAAUCAACGUUAUUUUGUUUUGCA: 0.948 ratio
AUUCUUGGCGGAUAGCCUACUUUAUGAAGGUAAGGAAUGAACUCCUACCCUUCUUGGGUCAUUCUCUGUACUGAUGCGUUAGUCUUAUAAUACUUUGCACCAACCUGAGGAAUCUUCUAG: 0.294 ratio
GACAUUGCAGAAAAUGCUUUGAAAAAUUCCUCAGAAACAGAAAUACCUACUGUCAGCGUUUUAGCUGAUGAAGAAUUCCUUCCCUUCAAAGAAAAUACAUUUGACCUGGUGGUUAGCAGU: 0.336 ratio
UCUGAUGGUGACCAUCAAGUUCCAGCUCCUUCAGGAAACAAAGCAGCUCUUUUGGAUCAAAUUAGAGAGGGUGCUCAGCUGAAAAAAGUGGAACAGAAUAGCCGGCCCGUGUCCUGCUCA: 0.42 ratio
CCAGUGAGUCAUCCGUCCAGAAGGCGGGGAGAGCAGCAGCGGCCCAAGCAGGAGCUGCAGCGAGCCGGGUACCUGGACUCAGCGGUAGCAACCUCGCCCCUUGCAACAAAGGCAGACUGA: 0.0972 ratio

A few entries again (study 3):
AACGATGCAAGTGCCCTTCGGTGCTAG: 0.0481 z-score
TTAGGATTCGGGTATCGGTTAGTGCTA: 4.33 z-score
GCCGATCTCAGTCTCGAGACGTGCTAG: 0.0766 z-score
GACGGTTTCCTTATTCTGACGTGCTAG: 0.737 z-score
TACGGTTTCGACACTGGGGACGTGCTA: 4.65 z-score
GACGGACTGGGTCTCGGGGCGTGCTAG: -0.728 z-score
